Measured values collected from several papers.
Numbered parts are unrelated; each lists some results of a single study. Substitutions count along the parent as printed.

Series 1
Target: CCNB2, cyclin fold, Cln2 fusion (human)
Technique: yeast growth competition, sequencing
Matrix: yeast
Notes: weak parent motif
Relative to: not given
Direction: higher = stronger binding
Endpoint: normalised enrichment score
Starting sequence: BRCA2 docking peptide (human); CKKRRALDFLSRL
R5A L7A: 0.545
L7A: 0.513
F9L: 0.398
C1A: 0.476
K2A: 0.56
R4A: 0.382
L10A: 1.01
R5K: 0.457
D8A: 0.365

Series 2
Target: NFE2, bZIP domain (human)
Technique: DHFR protein complementation
Matrix: yeast
Notes: single substitutions, most at no-binding floor
Relative to: wild-type JUN-FOS pair
Direction: higher = stronger binding
Endpoint: binding fitness
Starting sequence: JUN, bZIP domain (human); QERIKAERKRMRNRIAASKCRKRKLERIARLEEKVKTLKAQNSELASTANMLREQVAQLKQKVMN; partner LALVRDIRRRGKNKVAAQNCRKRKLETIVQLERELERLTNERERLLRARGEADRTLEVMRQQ
R53I: -1.4 natural log
Q41H: -1.46 natural log
R30M: -1.4 natural log
K39T: -1.24 natural log
E32T: -1.47 natural log
V56N: -1.48 natural log
Q58H: -1.52 natural log
A29V: -1.44 natural log
L38H: -1.44 natural log
A29N: -1.54 natural log
T48Y: -1.48 natural log
V56E: -1.36 natural log
L45Y: -1.45 natural log
N42H: -1.36 natural log
L52I: -1.47 natural log
A46P: -1.56 natural log
L38G: -1.45 natural log
L45I: -1.52 natural log
N42D: -1.44 natural log
A40M: -1.36 natural log

Series 3
Target: Fragile X messenger ribonucleoprotein 1, C-terminal low-complexity region (Fmr1, Mus musculus, UniProt P35922)
Technique: RNA Bind-n-Seq
Molecule type: RNA
Matrix: in vitro
Tested at: 200 nM
Notes: whole 134-nt RNA, ends assumed
Together with: 150 mM LiCl
Relative to: input library
Direction: higher = stronger binding
Endpoint: log2 enrichment
All molecules: 7-deaza-guanosine replaces G
Constant ends, left off below: GGGAGUUCUACAGUCCGACGAUC … UGGAAUUCUCGGGUGUCAAGG
CCUGUGCUACACAUCGUAUGUACCGAAUCGGGGAAAAAAGGGAAAAAAGGGAAAAAAGGGAAAGUAUUAUGUUACGCCGUUCGGAUCUGC: 0.136
CCUGUGCUACACAUCGUAUGUACCGAAUCGGGAAAAAGGGAAAAAAAGGGAAAAAAAGGGAAAGUAUUAUGUUACGCCGUUCGGAUCUGC: -0.251
GGACAAGAAUCCUUCAAGAAACAGGAAAAAACUCCUAAAACACCAAAAGGACCUAGUUCUGUAGAAGACAUUAAAGCAAAAAUGCAAGCA: 0.878
CACAGACAACACGCACCCACACAGACACAGAGGGAAGGGGUUGGGAUCGGGACAGGGUGCACAGCAGGGCGGGGUAGGACCCCAGCCCCU: 0.0598
UCAAGUCCUGUGCUACACAUCGUAUGUACCGAAUCGGGUUUGGGAGGGAAAGGGAAAGUAUUAUGUUACGCCGUUCGGAUCUGCACUUCC: -1.46
UGGGAGGGGGAUUUUGUUUAUUUUUUUAGCUCAUUUCCAGGGGUGGGAAUUUUUUUUUAAUAUGUGUCAUGAAUAAAGUUGUUUUUGAAA: 0.0859
UGGGAGGUGGAUUUUGUUUAUUUUUUUAGCUCAUUUCCAGGGGCGGGAAUUUUUUUUUAAUAUGUGUCAUGAAUAAAGUUGUUUUUGAAA: -0.389
UCCUGUGCUACACAUCGUAUGUACCGAAUCGGGUUUUUUUGGGUUUUUGGGUUUUUGGGAAAGUAUUAUGUUACGCCGUUCGGAUCUGCA: 0.263
GUCCUGUGCUACACAUCGUAUGUACCGAAUCGGGGAAAAAGGGAAAAAGGGAAAAAGGGAAAGUAUUAUGUUACGCCGUUCGGAUCUGCA: 0.404
GGCUGCUGGAGUGCCGUGAGCAGGCCGCGGGAACGUCGCCGUCACCUUGUCUCGGGGCCUCGGCGCUGCUUCCCGCCAAAACACGUUUAC: -0.755
CAAGUCCUGUGCUACACAUCGUAUGUACCGAAUCGGGAAAAGGAAAAGGGAAAAGGAAAGUAUUAUGUUACGCCGUUCGGAUCUGCACUU: -1.6

Series 4
Target: Histone acetyltransferase KAT6A, winged helix 1, GST fusion (KAT6A, Homo sapiens, UniProt Q92794, residues 1-85)
Technique: protein binding microarray
Molecule type: double-stranded DNA, one strand shown
Matrix: in vitro
Tested at: not given
Notes: 8-mer, flanks averaged, mean of 2 arrays, mostly near background
Relative to: not given
Direction: higher = stronger binding
Endpoint: E-score
Residues (chain): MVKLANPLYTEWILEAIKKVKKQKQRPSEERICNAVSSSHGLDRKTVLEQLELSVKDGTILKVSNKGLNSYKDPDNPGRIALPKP
CAATGATA: -0.0376
AATGCCAT: 0.00199
CATCCGAG: -0.05
CTCTCATC: -0.334
GCATAAGA: -0.0502
ACCGATAC: 0.149
GAGCATCA: -0.165
GCCCGGGA: 0.33
TCTTTCAA: -0.182
ACGAGAGG: -0.135
AGCGAGAC: 0.032
CTGCGCGA: 0.261
ATGGGGGG: -0.211
CCTTTGCC: -0.0328
CTCTGTAC: 0.012
GGATAGCC: 0.0627

Series 5
Target: ABI1, truncated, D143A, DHFR fusion (Arabidopsis thaliana)
Technique: DHFR PCA, deep sequencing
Matrix: yeast
Notes: methotrexate growth selection, single substitutions
Together with: (+)-ABA 710 µM
Relative to: wild-type fitted maximum
Direction: higher = stronger binding
Endpoint: relative binding score
Starting sequence: PYL1, truncated, DHFR fusion (Arabidopsis thaliana); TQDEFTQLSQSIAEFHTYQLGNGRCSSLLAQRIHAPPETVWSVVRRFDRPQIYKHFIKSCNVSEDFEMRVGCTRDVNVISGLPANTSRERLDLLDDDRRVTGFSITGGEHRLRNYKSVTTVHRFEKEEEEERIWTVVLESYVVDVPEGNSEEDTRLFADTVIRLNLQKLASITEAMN; partner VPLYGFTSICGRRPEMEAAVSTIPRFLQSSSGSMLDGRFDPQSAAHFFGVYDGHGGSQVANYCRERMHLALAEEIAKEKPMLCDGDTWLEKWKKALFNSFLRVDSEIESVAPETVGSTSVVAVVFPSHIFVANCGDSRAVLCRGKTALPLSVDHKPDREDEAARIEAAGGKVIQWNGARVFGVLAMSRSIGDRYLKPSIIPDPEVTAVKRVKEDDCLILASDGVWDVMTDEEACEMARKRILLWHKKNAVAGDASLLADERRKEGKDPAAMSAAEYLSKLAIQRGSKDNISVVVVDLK
L166V: 36.2%
Y53R: 83.2%
R123S: 109%
A170E: 88.5%
F124D: 117%
C60A: 99.2%
R98E: 97.2%
M68V: 101%
G107C: 87.1%
V145N: 80.8%
G108E: 53%
R24I: 97.8%
R99M: 112%
R90C: 95.1%
N61P: 77.1%
I33P: 3.2%

Series 6
Target: RNA binding protein fox-1 homolog 2, RRM domain, GST-SBP tag (RBFOX2, Homo sapiens, UniProt O43251-10, residues 100-194)
Technique: RNA Bind-n-Seq
Molecule type: RNA
Matrix: in vitro
Tested at: 365 nM
Notes: natural RNA segment, single round, ends assumed
Relative to: no-protein control
Direction: higher = stronger binding
Endpoint: RBNS enrichment (R)
Constant ends, left off below: GGGAGUUCUACAGUCCGACGAUC … UGGAAUUCUCGGGUGCCAA
Residues (chain): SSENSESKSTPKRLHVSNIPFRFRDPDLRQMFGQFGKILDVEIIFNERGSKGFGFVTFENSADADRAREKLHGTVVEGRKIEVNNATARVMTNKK
AAGUUGGGGCUGAAGUACCUAAGUGUGAAUGUCUCUCCCGUUAAACUGAGUGUAGAAAUCUGAAUUUUUAAAAGAGCUGUAACUAGUUGUAAGUGCUUAGGAAGAAACUU: 0.809
UAGUCUAACUCACCUAUUAACCUCUCUCAUCCUGGGUCAUCCUCCCUCCUUUCUCAGUGUCUGAUUCUCCACCCUCACACUCCCCACACCCACUCUCCCAUGCUUCUUUU: 1.03
CAGCUUGUCUGGGCCCUGCCCAAGUUCCGCCAGGGAACCCAGCCCCAGCUCAAGUGCCGCCCCCUCACCGCCAAUUCUCAACUGGUUGCCGUGUACACUGAUUACAUUUC: 0.409
CUGAGAAACAGCAUGCAAAACAUUUGAACCAUUUUCUACAUCUCCCAUUGUUGCAUAGAGAGUGUGCACCGCUGCUAUCUUGCCAGAUCCACACUGGUCCUCCCGAAAGC: 1.35
CUAACGAAACUCUCAAAUUCAUUAUCUACUUCAUGAGAAUUUAUUUGUAUUCAUUAACAUUAGUAAUACCUAUUUUUCUUAAGAGCCUUCUUUUUUCCCUUUUGUUUCUU: 1.11
CCAUGGCAGUCUAACUUAGCCUGCUUGUCUAAAUUGACUUCUGGUAACCACUUGGGCUAGGACACAGGAGGAAAGGAAGGCACUGUAUUUCCUAUGAGCUCUCUGCUCAG: 0.336
UUCUUUUCACUGUUGGUAUUUAUAGCACCUACCUUCAGAUUUUUCAGUAUGAUGUUUCUAUUUUCCAAUACUGGUUCCCUAACGGUCAACAUUUCUUCUCCCAACUAAAA: 1.02
GGAUCAUAGCUUCCUGUCCCCACCUAUUUUUGUAAAUAAAGUUUUAUGGGAACACAACCACAUCCAUUAUGCGUUGUCCGUGACUCCUUUCUUUCUGUAAUGGCACAAUG: 0.319
UCAUCUAUCCUCUAUCUGUAUCAAGCUCACUGCGGAUCCUGCUGUAAAACUGGUGGGUAGCUGGGCUGUCCGUUACCACCACAGCUACAUCUUCUGUUUCUUUGAAUAGA: 0.414
GUUUUGAGCAUGGCUAGUGGAUUUACAACAACACAUGCCUGUCACUGCUGGAGUCAGACUUACAAAAGCCUUAAGCGGAAAGUGUCCAGACCAGGCUGAGUCAGUAAAGG: 0.893
AAAAGUACUGUUUUAGCAGUGCACGUUCACUUCCACAGAGACUUUUAGGUGGGACUGUUCCAAGACACUCUCGAGGAUAUUGCAAACUUGUCCCUGACUAUAGCACAUGU: 3.77
GCCCACCAAUCAACAUUCAGAUCAGCAUCAGCACCCACCCCACUUCCUGACAAAUCUGAUUUUUCUAGAAUCCUGUUCUUCCCUCACCUUAGGGAAGGAGAAUGUUUGUC: 0.633

Repeated from above (series 2):
E32T: -1.47 natural log
T48Y: -1.48 natural log
A46P: -1.56 natural log
A29V: -1.44 natural log
A40M: -1.36 natural log
Q58H: -1.52 natural log
N42D: -1.44 natural log
R53I: -1.4 natural log
N42H: -1.36 natural log
V56E: -1.36 natural log
